# Results pooled from the literature.
# Each line is one published result; not all experiments were run side by side.
# Target: Serine/threonine-protein kinase PAK 4 (PAK4, Homo sapiens, UniProt O96013)
# UniProt O96013, sequence (whole entry, looked up): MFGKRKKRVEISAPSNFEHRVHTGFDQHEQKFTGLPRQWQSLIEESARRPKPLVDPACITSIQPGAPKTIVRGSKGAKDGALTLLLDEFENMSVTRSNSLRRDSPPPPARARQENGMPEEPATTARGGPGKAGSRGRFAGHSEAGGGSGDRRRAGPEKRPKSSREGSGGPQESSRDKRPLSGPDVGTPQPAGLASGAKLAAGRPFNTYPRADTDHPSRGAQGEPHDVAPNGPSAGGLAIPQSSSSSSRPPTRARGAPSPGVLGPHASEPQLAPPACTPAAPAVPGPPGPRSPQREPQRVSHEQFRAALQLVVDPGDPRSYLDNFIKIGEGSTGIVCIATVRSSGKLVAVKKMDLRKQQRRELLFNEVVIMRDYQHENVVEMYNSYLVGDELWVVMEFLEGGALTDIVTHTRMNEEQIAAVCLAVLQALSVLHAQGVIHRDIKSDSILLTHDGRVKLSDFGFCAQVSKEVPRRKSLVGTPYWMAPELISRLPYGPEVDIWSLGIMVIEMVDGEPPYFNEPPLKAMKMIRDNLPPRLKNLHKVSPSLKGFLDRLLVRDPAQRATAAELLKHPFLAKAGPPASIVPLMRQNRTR
Structure (SMILES),test,conditions,how to read,quantity,value
Nc1ncc2c(n1)-c1c([nH]c3ccc(-c4ccc(F)cc4)cc13)CCC2,"kinase activity, inhibitor, radiometric","1 µM, added: ATP at Km",,remaining activity,76%
COCCNc1nc2ccc(C#CC3(O)CCCCC3)cc2n1-c1ccnc(N)n1,"enzyme activity, inhibitor, Z'-LYTE",1 µM,relative to: no-inhibitor control,remaining kinase activity,91.1%
Cc1cc(Nc2cc(N3CCN(C)CC3)nc(Sc3ccc(NC(=O)C4CC4)cc3)n2)[nH]n1,"kinase activity, KinaseProfiler","0.03 µM, species human",relative to: control,remaining activity,124%
O=C(NC1CCC1)c1ccc2nc(-c3cccc(NS(=O)(=O)NCCN4CCCCC4)c3)cn2c1,enzyme activity,10 µM,,remaining activity,100%
COc1cc(-c2cncc3c2CN(C)Cc2cc(N4CCNCC4)ccc2-3)cc(OC)c1OC,kinase activity,"1 µM, human enzyme, added: ATP 10 µM",relative to: DMSO control,remaining activity,108%
CN1CC(Oc2cnc(C#N)cc2-c2ccn3nc(NC(=O)C4CC4)cc3c2)C1,"inhibitor, KinaseProfiler panel",1 µM,,inhibition,9%
COc1cc(F)ccc1-c1ncnc(Nc2cccc(C[S@](C)(=N)=O)c2)n1,kinase activity,"10 µM, added: 10 µM ATP",,remaining activity,89%
C=CC(=O)N1CCC(COCC(=O)N2CCN(c3nc(-c4cnc(N)nc4C(F)F)nc(N4CCOC[C@@H]4C)n3)CC2)CC1,KINOMEscan,1 µM,,remaining binding,88%
C=CC(=O)N1CCC(C(=O)NCC(=O)N2CCN(c3nc(-c4cnc(N)nc4C(F)F)nc(N4CCOCC4)n3)CC2)CC1,KINOMEscan,1 µM,,remaining binding,99%
O=C1NC(=O)/C(=C/c2ccc(-c3ccc(F)cc3O)o2)S1,enzyme activity,10 µM,,remaining activity,65%

# For quick reference, copied from above:
Structure (SMILES),test,conditions,how to read,quantity,value
COCCNc1nc2ccc(C#CC3(O)CCCCC3)cc2n1-c1ccnc(N)n1,"enzyme activity, inhibitor, Z'-LYTE",1 µM,relative to: no-inhibitor control,remaining kinase activity,91.1%
